Assay results of several laboratories.
Method: steady-state kinetics
B1: enzyme K299V (Mus musculus, UniProt P08680); chain DRKSKIVQRAAPEVQEDVKTFKTDLLSTMDSTTRSHSFPSFQEPEQTEGAVPHLIQNNMTGSQAFGYDQFFRDKIMEKKQDHTYRVFKTVNRWANAYPFAQHFSEASMASKDVSVWCSNDYLGISRHPRVLQAIEETLKNHGAGAGGTRNISGTSKFHVELEQELAELHQKDSALLFSSCFVANDSTLFTLAKLLPGCEIYSDAGNHASMIQGIRNSGAAVFVFRHNDPGHLKKLLEKSDPKTPKIVAFETVHSMDGAICPLEELCDVAHQYGALTFVDEVHAVGLYGARGAGIGERDGIMHKLDIISGTLGKAFGCVGGYIASTRDLVDMVRSYAAGFIFTTSLPPMVLSGALESVRLLKGEEGQALRRAHQRNVKHMRQLLMDRGFPVIPCPSHIIPIRVGNAALNSKICDLLLSKHSIYVQAINYPTVPRGEELLRLAPSPHHSPQMMENFVEKLLLAWTEVGLPLQDVSVAACNFCHRPVHFELMSEWERSYFGNMGPQYVTTYA
B2: protein Y93T (Thermus thermophilus, UniProt Q5SKR5); chain MSAPKPFVIGIAGGTASGKTTLAQALARTLGERVALLPMDHYYKDLGHLPLEERLRVNYDHPDAFDLALYLEHAQALLRGLPVEMPVYDFRATTRSPRRTPVRPAPVVILEGILVLYPKELRDLMDLKVFVDADADERFIRRLKRDVLERGRSLEGVVAQYLEQVKPMHLHFVEPTKRYADVIVPRGGQNPVALEMLAAKALARLARMGAA
B3: FPPS (Aedes aegypti, UniProt Q17F78); chain MLSTLIRAGSLQTMGRQFARSVETPVQMQHARFISKSSEVNSDYMTMRENQTQKVSRDYNSKLQVRLKKVSRTLSTLNNSIPEAASQTIVTKSDAREFMAVFPDLVRDLTEYCKKYDNTLAPKWFVKALQYNVPQGKKNRGLAAVLAYRMLSKSEDLTPENIRRAHYLGWVIEMFQAVFLICDDAMDGSQTRRGQPCWYKLEDVKLSGINDALMIDAAIFYVLKKQFGDEPYYSKLVETFNEIKFITTIGQSLDLRSARMDVTKYTMDLYKSIVCHKTAYYTFYLPVALAMHMTGFTDPEVFRQTKTILLEIGLFYQTQDDFLDCFGDPAVTGKIGTDIEEGKCTWLSVVAMQRASDEQKELMKQCYGSSDPEKVARVKKLYEELGLPTTYAIYEEESYNMIKTHIQQISRGLPHELFFKIMEKIYRRDC
B4: ASRGL1 (Homo sapiens, UniProt Q7L266); chain 1 MNPIVVVHGGGAGPISKDRKERVHQGMVRAATVGYGILREGGSAVDAVEGAVVALEDDPEFNAGCGSVLNTNGEVEMDASIMDGKDLSAGAVSAVQCIANPIKLARLVMEKTPHCFLTDQGAAQFAAAMGVPEIPGEKLVTERNKKRLEKEKHEKGAQKTDCQKNLG; chain 2 TVGAVALDCKGNVAYATSTGGIVNKMVGRVGDSPCLGAGGYADNDIGAVSTTGHGESILKVNLARLTLFHIEQGKTVEEAADLSLGYMKSRVKGLGGLIVVSKTGDWVAKWTSTSMPWAAAKDGKLHFGIDPDDTTITDLP
B5: enzyme (Mortierella alpina, UniProt U5Y6A8); chain MAPPHVVDEQVRRRIVVEDEIQSKKQFERNYVPMDFTIKEIRDAIPAHLFIRDTTKSILHVVKDLVTIAIVFYCATFIETLPSLALRVPAWITYWIIQGTVMVGPWILAHECGHGAFSDSKTINTIFGWVLHSALLVPYQAWAMSHSKHHKGTGSMSKDVVFIPATRSYKGLPPLEKPAAEEEVLEQEHHHHEESIFAETPIYTLGALFFVLTLGWPLYLIMNFSGHEAPHWVNHFQTVAPLYEPHQRKNIFYSNCGIVAMGSILTYLSMVFSPLTVFMYYGIPYLGVNAWIVCITYLQHTDPKVPHFRDNEWNFQRGAACTIDRSFGTIVNHLHHHIGDSHQCHHMFSQMPFYNAVEATKHLKAKLGKYYIFDDTPIAKALYRNWRECKFVEDEGDVVFYKH
B6: sacB (Priestia megaterium, UniProt D5DC07); chain KGNDSKDFNNSYGISHITRDNMVKIPQQQNSDQFKVPAFDESTIKNIASAKGKNASGNTIDLDVWDSWPLQNADGTVATYHGYQIVFALAGDPKDSNDTSVYLFYKKAGDKSIDSWKNAGRVFKDSDKFVPNDPHLKNQTQEWSGSGTLTKDGKVRLFYTDYSGKQYGKQTLTTAQVNMSQPNDNTLKVDGVEDYKSIFDGDGKIYQTVQQFIDEGGYDTGDNHTLRDPHYIEDNGHKYLVFEANTGTEDGYQGEDSLYNRAYYGGNNPFFQSEKKKLLEGSNKEKASLANGALGIIELNDDYTLKKVMKPLITSNTVTDEIERANIFKKDGKWYLFTDSRGSKMTIDGIGQDDVYMLGYVSNTLTGKYKPLNDTGLVLHMDLDPNDKTFTYSHFAVPQTKGDNVVITSYMTNRGFYEDNHSTFAPSFLVNIDGSKTSVVKDRVLEQGQLTVDED
B7: carbamoyl phosphate synthetase large subunit M174E/M378E (Escherichia coli, UniProt P00968); chain PKRTDIKSILILGAGPIVIGQACEFDYSGAQACKALREEGYRVILVNSNPATIMTDPEMADATYIEPIHWEVVRKIIEKERPDAVLPTMGGQTALNCALELERQGVLEEFGVTMIGATADAIDKAEDRRRFDVAMKKIGLETARSGIAHTMEEALAVAADVGFPCIIRPSFTEGGSGGGIAYNREEFEEICARGLDLSPTKELLIDESLIGWKEYEMEVVRDKNDNCIIVCSIENFDAMGIHTGDSITVAPAQTLTDKEYQIMRNASMAVLREIGVETGGSNVQFAVNPKNGRLIVIEMNPRVSRSSALASKATGFPIAKVAAKLAVGYTLDELMNDITGGRTPASFEPSIDYVVTKIPRFNFEKFAGANDRLTTQEKSVGEVMAIGRTQQESLQKALRGLEVGATGFDPKVSLDDPEALTKIRRELKDAGADRIWYIADAFRAGLSVDGVFNLTNIDRWFLVQIEELVRLEEKVAEVGITGLNADFLRQLKRKGFADARLAKLAGVREAEIRKLRDQYDLHPVYKRVDTCAAEFATDTAYMYSTYEEECEANPSTDREKIMVLGGGPNRIGQGIEFDYCCVHASLALREDGYETIMVNCNPETVSTDYDTSDRLYFEPVTLEDVLEIVRIEKPKGVIVQYGGQTPLKLARALEAAGVPVIGTSPDAIDRAEDRERFQHAVERLKLKQPANATVTAIEMAVEKAKEIGYPLVVRPSYVLGGRAMEIVYDEADLRRYFQTAVSVSNDAPVLLDHFLDDAVEVDVDAICDGEMVLIGGIMEHIEQAGVHSGDSACSLPAYTLSQEIQDVMRQQVQKLAFELQVRGLMNVQFAVKNNEVYLIEVNPRAARTVPFVSKATGVPLAKVAARVMAGKSLAEQGVTKEVIPPYYSVKEVVLPFNKFPGVDPLLGPEMRSTGEVMGVGRTFAEAFAKAQLGSNSTMKKHGRALLSVREGDKERVVDLAAKLLKQGFELDATHGTAIVLGEAGINPRLVNKVHEGRPHIQDRIKNGEYTYIINTTSGRRAIEDSRVIRRSALQYKVHYDTTLNGGFATAMALNADATEKVISVQEMHAQIK
UniProt P76044, sequence (whole entry, looked up): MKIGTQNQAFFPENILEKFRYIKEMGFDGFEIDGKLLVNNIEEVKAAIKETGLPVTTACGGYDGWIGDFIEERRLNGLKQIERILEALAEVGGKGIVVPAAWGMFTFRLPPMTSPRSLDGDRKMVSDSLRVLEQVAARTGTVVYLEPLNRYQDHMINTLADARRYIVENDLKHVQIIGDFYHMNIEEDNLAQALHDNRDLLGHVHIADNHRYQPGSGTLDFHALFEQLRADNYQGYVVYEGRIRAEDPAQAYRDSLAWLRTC
UniProt Q6WZB0, sequence (whole entry, looked up): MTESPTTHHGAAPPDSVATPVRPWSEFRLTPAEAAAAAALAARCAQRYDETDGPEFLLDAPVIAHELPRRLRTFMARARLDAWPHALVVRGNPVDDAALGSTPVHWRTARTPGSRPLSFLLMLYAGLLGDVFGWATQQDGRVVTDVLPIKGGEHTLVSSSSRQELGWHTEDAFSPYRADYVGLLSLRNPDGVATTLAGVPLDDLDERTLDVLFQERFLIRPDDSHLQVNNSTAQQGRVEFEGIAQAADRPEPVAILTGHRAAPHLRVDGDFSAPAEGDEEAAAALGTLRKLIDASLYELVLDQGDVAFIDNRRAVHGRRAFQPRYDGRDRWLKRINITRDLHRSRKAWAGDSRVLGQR
UniProt Q8QZR1, sequence (whole entry, looked up): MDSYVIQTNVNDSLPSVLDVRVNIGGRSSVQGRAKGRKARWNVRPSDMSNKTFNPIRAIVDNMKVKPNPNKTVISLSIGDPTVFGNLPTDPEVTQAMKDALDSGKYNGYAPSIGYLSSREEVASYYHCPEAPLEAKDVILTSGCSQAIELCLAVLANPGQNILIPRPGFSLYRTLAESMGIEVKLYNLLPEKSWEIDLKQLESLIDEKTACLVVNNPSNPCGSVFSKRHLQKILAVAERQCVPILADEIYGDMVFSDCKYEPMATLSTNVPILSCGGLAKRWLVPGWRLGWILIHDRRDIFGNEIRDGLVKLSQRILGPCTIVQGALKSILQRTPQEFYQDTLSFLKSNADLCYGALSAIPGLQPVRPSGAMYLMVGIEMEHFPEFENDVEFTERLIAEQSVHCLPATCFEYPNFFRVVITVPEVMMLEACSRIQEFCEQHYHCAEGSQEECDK

The Km of `B1 (enzyme K299V)` is reported as 23 µM (CC(C)(COP(=O)(O)OP(=O)(O)OC[C@H]1O[C@@H](n2cnc3c(N)ncnc32)[C@H](O)[C@@H]1OP(=O)(O)O)[C@@H](O)C(=O)NCCC(=O)NCCSC(=O)CCC(=O)O; pH 7.5, 37 °C).
`B2 (protein Y93T)` gave a Km of 587 µM (Nc1ccn([C@@H]2O[C@H](CO)[C@@H](O)[C@H]2O)c(=O)n1; pH 7.2, 25 °C, KCl 100 mM, with: ATP 100–200 µM).
The Km of `vioC (Streptomyces vinaceus, UniProt Q6WZB0)` is reported as 3400 µM (N=C(N)NCCC[C@H](N)C(=O)O; pH 8, 30 °C, apparent, with: alpha-ketoglutarate 1.0 mM).
For `B3 (FPPS)`, the Km was 17.3 µM (CC(C)=CCC/C(C)=C/COP(=O)(O)OP(=O)(O)O; pH 7.5, 37 °C, with: IPP 100 µM, Mg2+ 5 mM).
With `B4 (ASRGL1)` the Km was 3400 µM (NC(=O)C[C@H](N)C(=O)O; pH 7.4, 37 °C, NaCl 100 mM).
`ycjR (Escherichia coli, UniProt P76044)` gave a Km of 31000 µM (CO[C@@H]1O[C@H](CO)[C@@H](O)C(=O)[C@H]1O; pH 8, 30 °C, with: MnCl2 0.5 mM, NADH 0.3 mM).
For `enzyme (Triticum aestivum, UniProt A0A6J4BJG4)`, the Km was 318 µM (O=C1[C@@H](O[C@@H]2O[C@H](CO)[C@@H](O)[C@H](O)[C@H]2O)Oc2ccccc2N1O; pH 7.2, 30 °C).
`Tat (Mus musculus, UniProt Q8QZR1)` has a Km of 1800 µM (N[C@@H](Cc1ccc(O)cc1)C(=O)O; pH 7, 38 °C, 100 mM phosphate, with: 10 mM KGA; PLP).
`B5 (enzyme)` has a Km of 87.9 µM (CCCCC/C=C\C/C=C\C/C=C\CCCCC(=O)SCCNC(=O)CCNC(=O)[C@H](O)C(C)(C)COP(=O)(O)OP(=O)(O)OC[C@H]1O[C@@H](n2cnc3c(N)ncnc32)[C@H](O)[C@@H]1OP(=O)(O)O; pH 7.5, 28 °C).
For `B6 (sacB)`, the Km was 21200 µM (OC[C@H]1O[C@@](CO)(O[C@H]2O[C@H](CO)[C@@H](O)[C@H](O)[C@H]2O)[C@@H](O)[C@@H]1O; pH 6.9).
With `BCAA decarboxylase (Echinacea purpurea, UniProt A0A1A8JL35)` the Km was 15800 µM (CC(C)[C@H](N)C(=O)O; pH 7.5, 37 °C, with: PLP 1 mM).
For `protein (Candidatus Protochlamydia amoebophila, UniProt A0A2P9HA01)`, the Km was 59 µM (Nc1nc2c(ncn2[C@@H]2O[C@H](COP(=O)(O)OP(=O)(O)O)[C@@H](O)[C@H]2O)c(=O)[nH]1; pH 7, 30 °C, transporter, labelled substrate, apparent, not purified).
For `B7`, the Km was 280 µM (Nc1ncnc2c1ncn2[C@@H]1O[C@H](COP(=O)(O)OP(=O)(O)OP(=O)(O)O)[C@@H](O)[C@H]1O; pH 7.6, KCl 100 mM, with: glutamine 10 mM, ornithine 10 mM).

Repeated from above:
For `B3 (FPPS)`, the Km was 17.3 µM (CC(C)=CCC/C(C)=C/COP(=O)(O)OP(=O)(O)O; pH 7.5, 37 °C, with: IPP 100 µM, Mg2+ 5 mM).
With `B4 (ASRGL1)` the Km was 3400 µM (NC(=O)C[C@H](N)C(=O)O; pH 7.4, 37 °C, NaCl 100 mM).
